Published values gathered from unrelated publications.
Values joined by “and” are separate records of one study, mostly repeats; a detail may differ.
Cell line: NCI-H522

`CCN(CC)c1ccc(C=NNC(=O)CSc2nc3ccccc3c(=O)n2Cc2ccc(S(N)(=O)=O)cc2)c(O)c1` gave a TGI of greater than 100000 nM (NCI five-dose screen).
The TGI of `Cc1n(Cc2ccc3ccccc3c2)c2ccccc2[n+]1Cc1ccc2ccccc2c1.[Br-]` is reported as 2270 nM (NCI60 five-dose screen).
`Cc1cc(=O)[nH]n1-c1nc(-c2ccc(Cl)cc2)c2c(NC(=O)c3ccccc3)nnc-2[nH]1` has a cell growth of 93.5% (SRB; 10 µM, NCI60 single-dose screen; relative to: untreated).
`Cn1cncc1C1=CN(c2ncnc3[nH]cnc23)CCS1` has a TGI of 81300 nM (lung cancer).
`CCCN1CCN(c2ccc3[nH]c(-c4ccc5[nH]c(-c6ccc(OCC)c(OCC)c6)nc5c4)nc3c2)CC1` gave a growth percent of -44.8% (SRB; 10 µM, 48 h).
With `Cc1cc(C)n(-c2nc(-c3ccc(Cl)cc3)c3c(NC(=O)c4ccccc4)nnc-3[nH]2)n1` the cell growth was 76.5% (SRB; 10 µM, NCI60 single-dose screen; relative to: untreated).
With `CCCCN1CCN(c2ccc3nc(-c4ccc5nc(-c6cc(OC)ccc6OC)[nH]c5c4)[nH]c3c2)CC1` the growth percent was 106% (SRB; 10 µM, 48 h).
For `O=C1NC(c2ccccc2)(c2ccccc2)C(=O)N1Cc1cn(-c2cc3ccccc3oc2=O)nn1`, the growth percentage was 72.9% (NCI60 single-dose screen; 10 µM).
With `Cc1cc(C)n(C(=S)[S][Au][PH](CCCCCC[PH]([Au][S]C(=S)n2nc(C)cc2C)(c2ccccc2)c2ccccc2)(c2ccccc2)c2ccccc2)n1` the log10 TGI was -5.32 (cell growth, NCI-60 screen; non-small cell lung cancer).
`C#C[C@@]1(O)[C@@H](CO)O[C@@H](n2cc(Cl)c3c(N)ncnc32)[C@@H]1O` gave a TGI of 276 nM and 455 nM (SRB; NCI-60 screen).
With `[Br-].c1ccc2cc(Cn3c[n+](Cc4ccc5ccccc5c4)c4ccccc43)ccc2c1` the TGI was 2820 nM (NCI60 five-dose screen).
`Cc1cc(=O)[nH]c(=O)n1Cc1cn(-c2c3ccccc3nc3ccccc23)nn1` gave a growth percentage of -74.3% (NCI60 single-dose screen; 10 µM).
`COc1ccc(OC)c(-c2nc3ccc(-c4nc5ccc(N6CCN(C)CC6)cc5[nH]4)cc3[nH]2)c1` has a growth percent of 103% (SRB; 10 µM, 48 h).
The growth percentage of `CCCC(CCC)C(=O)OCc1cn(-c2c3ccccc3nc3ccccc23)nn1` is reported as 88.3% (NCI60 single-dose screen; 10 µM).
For `CCCCN1CCN(c2ccc3[nH]c(-c4ccc5[nH]c(-c6ccc(OCC)c(OCC)c6)nc5c4)nc3c2)CC1`, the growth percent was -32.2% (SRB; 10 µM, 48 h).
With `O=C(Nc1nnc2[nH]c(=S)[nH]c(-c3ccc(Cl)cc3)c1-2)c1ccccc1` the cell growth was 104% (SRB; 10 µM, NCI60 single-dose screen; relative to: untreated).
With `C#C[C@@]1(O)[C@@H](CO)O[C@@H](n2cc(Br)c3c(N)ncnc32)[C@@H]1O` the TGI was 593 nM and 332 nM (SRB; NCI-60 screen).
`O=C(Nc1nnc2n3c(=S)[nH][nH]c3nc(-c3ccc(Cl)cc3)c1-2)c1ccccc1` has a cell growth of 94.7% (SRB; 10 µM, NCI60 single-dose screen; relative to: untreated).
`O=C(/C=C/C=C/C=C/C1CCCCC1)NC1=C[C@@](O)(/C=C/C=C/C=C/C(=O)NC2=C(O)CCC2=O)[C@@H]2O[C@@H]2C1=O` has a GI50 of 16700 nM (cell growth, CellTiter-Glo; 78 h).
For `Cc1cc2c(cc1C)[n+](Cc1ccc3ccccc3c1)cn2Cc1ccc2ccccc2c1.[Br-]`, the TGI was 2990 nM (NCI60 five-dose screen).
For `CCCCN1CCN(c2ccc3[nH]c(-c4ccc5[nH]c(-c6ccc(C(F)(F)F)cc6)nc5c4)nc3c2)CC1`, the growth percent was -38.2% (SRB; 10 µM, 48 h).
With `C#C[C@@]1(O)[C@@H](CO)O[C@@H](n2cc(F)c3c(N)ncnc32)[C@@H]1O` the TGI was 929 nM (SRB; NCI-60 screen).
With `CN1CCN(c2ccc3[nH]c(-c4ccc5[nH]c(-c6ccc(C(F)(F)F)cc6)nc5c4)nc3c2)CC1` the growth percent was 64.1% (SRB; 10 µM, 48 h).
With `Cc1n[nH]c2nc(-c3ccc(Cl)cc3)c3c(NC(=O)c4ccccc4)nnc-3n12` the cell growth was 47.9% (SRB; 10 µM, NCI60 single-dose screen; relative to: untreated).

Some of these lines once more:
With `[Br-].c1ccc2cc(Cn3c[n+](Cc4ccc5ccccc5c4)c4ccccc43)ccc2c1` the TGI was 2820 nM (NCI60 five-dose screen).
With `Cc1n[nH]c2nc(-c3ccc(Cl)cc3)c3c(NC(=O)c4ccccc4)nnc-3n12` the cell growth was 47.9% (SRB; 10 µM, NCI60 single-dose screen; relative to: untreated).
With `CCCCN1CCN(c2ccc3nc(-c4ccc5nc(-c6cc(OC)ccc6OC)[nH]c5c4)[nH]c3c2)CC1` the growth percent was 106% (SRB; 10 µM, 48 h).
For `CCCCN1CCN(c2ccc3[nH]c(-c4ccc5[nH]c(-c6ccc(OCC)c(OCC)c6)nc5c4)nc3c2)CC1`, the growth percent was -32.2% (SRB; 10 µM, 48 h).
